{"data": "Results collected from several papers", "note": "Numbered parts are unrelated; each lists some results of a single study. Changes are numbered by the printed parent chain.", "sequence of UniProt O15294 (whole entry, looked up)": "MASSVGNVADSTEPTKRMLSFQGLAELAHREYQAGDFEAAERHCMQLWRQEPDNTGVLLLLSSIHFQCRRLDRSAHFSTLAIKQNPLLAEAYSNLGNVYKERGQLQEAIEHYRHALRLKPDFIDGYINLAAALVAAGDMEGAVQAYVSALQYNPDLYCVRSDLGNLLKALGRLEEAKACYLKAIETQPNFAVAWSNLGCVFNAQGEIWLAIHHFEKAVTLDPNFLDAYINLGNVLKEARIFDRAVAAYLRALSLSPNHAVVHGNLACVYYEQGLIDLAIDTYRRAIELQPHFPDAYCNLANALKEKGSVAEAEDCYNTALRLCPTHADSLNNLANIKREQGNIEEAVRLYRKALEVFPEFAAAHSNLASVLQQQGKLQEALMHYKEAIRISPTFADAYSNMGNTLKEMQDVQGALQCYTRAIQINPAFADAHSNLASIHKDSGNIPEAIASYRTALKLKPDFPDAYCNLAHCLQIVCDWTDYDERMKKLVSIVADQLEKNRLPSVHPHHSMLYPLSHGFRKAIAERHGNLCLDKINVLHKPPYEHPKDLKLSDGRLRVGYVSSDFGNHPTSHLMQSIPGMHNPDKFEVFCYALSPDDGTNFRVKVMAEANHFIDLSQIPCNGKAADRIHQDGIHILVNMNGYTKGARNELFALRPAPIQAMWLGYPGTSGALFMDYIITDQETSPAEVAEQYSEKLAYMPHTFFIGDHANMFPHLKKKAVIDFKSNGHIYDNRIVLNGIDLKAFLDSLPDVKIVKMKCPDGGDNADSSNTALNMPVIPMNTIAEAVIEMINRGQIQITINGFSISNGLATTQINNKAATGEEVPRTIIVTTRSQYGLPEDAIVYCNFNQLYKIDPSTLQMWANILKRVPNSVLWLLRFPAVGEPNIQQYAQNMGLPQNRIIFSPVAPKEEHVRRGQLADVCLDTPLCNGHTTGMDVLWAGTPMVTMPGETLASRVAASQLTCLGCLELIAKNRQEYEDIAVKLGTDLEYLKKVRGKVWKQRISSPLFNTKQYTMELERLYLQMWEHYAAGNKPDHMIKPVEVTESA"}
{"data": "Study 1", "target": "Probable WRKY transcription factor 33, C-terminal DNA-binding domain (WRKY33, Arabidopsis thaliana, UniProt Q8S8P5, residues 346-449)", "technique": "DNA-protein interaction ELISA", "molecule type": "double-stranded DNA, one strand shown", "medium": "in vitro, bacterial lysate", "tested at": "not given", "setting": "whole dsDNA probe, crude lysate protein", "baseline": "highest signal in screen", "reading": "higher = stronger binding", "Residues (chain)": "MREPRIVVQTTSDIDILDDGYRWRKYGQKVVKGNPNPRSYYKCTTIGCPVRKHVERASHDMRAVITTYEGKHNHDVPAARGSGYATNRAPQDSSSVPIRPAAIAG"}
{"Strand": "AAAAAATTTCTCCTTCTTTGTTCTTCAAAA", "relative absorbance": "37.2 % of maximum"}
{"Strand": "AAAAAATCCCCCCGTTTCACTCTTGCAAAA", "relative absorbance": "30.5 % of maximum"}
{"Strand": "AAAAAAGCTCGTCTCCGCCTCCTGCTAAAA", "relative absorbance": "71.4 % of maximum"}
{"Strand": "AAAAAATCCATTCTTCGCGTTTATCCAAAA", "relative absorbance": "44 % of maximum"}
{"Strand": "AAAAAATTAGACGCTACACTTACGGTAAAA", "relative absorbance": "38.1 % of maximum"}
{"Strand": "AAAAAAGGCCGTTGGACCTCGGTCTAAAAA", "relative absorbance": "52.8 % of maximum"}
{"Strand": "AAAAAACATTGATAAAATCTCCAGGCAAAA", "relative absorbance": "33.4 % of maximum"}
{"Strand": "AAAAAATCACAATACCTTCTCGTCATAAAA", "relative absorbance": "47.7 % of maximum"}
{"data": "Study 2", "target": "CEP164, C-terminal peptide (human)", "technique": "DHFR complementation, deep sequencing", "medium": "yeast", "setting": "single substitutions, model-inferred values", "baseline": "wild type", "reading": "higher = weaker binding", "starting sequence": "PDZK1, PDZ domain 2 (human); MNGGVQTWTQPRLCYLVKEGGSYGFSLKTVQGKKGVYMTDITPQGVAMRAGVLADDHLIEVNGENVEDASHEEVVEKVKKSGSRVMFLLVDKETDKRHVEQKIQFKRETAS; partner HNRVKVYRF"}
{"Substitution": "G51I", "binding free energy change [kcal/mol]": 1.19}
{"Substitution": "L16P", "binding free energy change [kcal/mol]": 1.15}
{"Substitution": "F87H", "binding free energy change [kcal/mol]": 1.54}
{"Substitution": "K28G", "binding free energy change [kcal/mol]": 0.821}
{"Substitution": "K79I", "binding free energy change [kcal/mol]": -0.376}
{"Substitution": "S83R", "binding free energy change [kcal/mol]": -0.0849}
{"Substitution": "T39D", "binding free energy change [kcal/mol]": -0.00519}
{"Substitution": "D95R", "binding free energy change [kcal/mol]": -0.333}
{"data": "Study 3", "target": "Sal-like protein 4, full length isoform B (SALL4, Homo sapiens, UniProt Q9UJQ4-2, residues 1-616)", "technique": "universal PBM", "molecule type": "double-stranded DNA, one strand shown", "medium": "in vitro", "tested at": "not given", "setting": "8-mer, flanks averaged, mean of replicates", "reading": "higher = stronger binding"}
{"Strand": "TCTACACA", "E-score": 0.0374}
{"Strand": "AAACCTGC", "E-score": -0.0615}
{"Strand": "TCAGCGAA", "E-score": -0.0815}
{"Strand": "AGGGCGAA", "E-score": -0.139}
{"Strand": "AGTGTCGG", "E-score": -0.261}
{"Strand": "CGCCAGAG", "E-score": -0.218}
{"Strand": "GCGGCCGC", "E-score": -0.345}
{"Strand": "AATACCAA", "E-score": 0.285}
{"data": "Mixed results"}
{"Sequence": "GDQSYRPIYPIQYYK", "target": "UDP-N-acetylglucosamine--peptide N-acetylglucosaminyltransferase 110 kDa subunit (OGT, Homo sapiens, UniProt O15294)", "assay": "binding, phage display NGS", "test system": "peptide", "conditions": "concentration not given, normalized abundance", "how to read": "baseline: input library", "measurement": "enrichment fold change", "result": 13.5}
{"note": "A few entries again (study 3):"}
{"Strand": "AGTGTCGG", "E-score": -0.261}
{"Strand": "CGCCAGAG", "E-score": -0.218}
{"Strand": "TCTACACA", "E-score": 0.0374}
